{"data": "Published values from different studies", "note": "Numbered parts are unrelated; each lists some results of a single study."}
{"data": "Study 1", "target": "Phosphate system positive regulatory protein PHO4, full length, GST-tagged (PHO4, Saccharomyces cerevisiae, UniProt P07270, residues 1-312)", "technique": "competition protein-binding microarray", "molecule type": "double-stranded DNA, one strand shown", "matrix": "in vitro", "tested at": "2 µM", "setting": "whole 60-bp probe, lowest competitor level", "together with": "Cbf1 competitor, 0.05 µM", "reading": "higher = stronger binding", "Construct (chain)": "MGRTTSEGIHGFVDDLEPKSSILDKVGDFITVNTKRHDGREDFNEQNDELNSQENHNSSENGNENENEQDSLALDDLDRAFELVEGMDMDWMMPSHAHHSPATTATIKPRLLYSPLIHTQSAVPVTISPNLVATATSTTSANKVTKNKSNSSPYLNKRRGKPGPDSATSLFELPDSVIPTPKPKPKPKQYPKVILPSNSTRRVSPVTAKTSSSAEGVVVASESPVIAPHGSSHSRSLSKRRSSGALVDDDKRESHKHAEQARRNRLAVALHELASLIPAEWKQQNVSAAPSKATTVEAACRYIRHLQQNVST"}
{"Sequence": "CATACCCAACCTTGTCACGATACTTAAGATATTTGTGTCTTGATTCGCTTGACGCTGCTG", "fluorescence intensity": "6800 a.u."}
{"Sequence": "GAGATACTTAAGCATCATGTGATGGTTTTGACACAAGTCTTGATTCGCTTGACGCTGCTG", "fluorescence intensity": "6660 a.u."}
{"Sequence": "CATACCCAACCTTGAGGGGTGGGTGAAGATATTTGTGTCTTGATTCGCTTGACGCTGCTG", "fluorescence intensity": "3820 a.u."}
{"Sequence": "CGGGGTTAAGTTTGTCACGTGACTTGCTTGCAGCAGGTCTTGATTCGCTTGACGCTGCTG", "fluorescence intensity": "12200 a.u."}
{"Sequence": "CATACCCAACCTTGTTAAGTGGGTGAAGATATTTGTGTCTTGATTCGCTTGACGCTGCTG", "fluorescence intensity": "3610 a.u."}
{"Sequence": "CTTTCCCGATCTTTTCACGTGTAATTAGCACATTTGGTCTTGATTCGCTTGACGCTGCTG", "fluorescence intensity": "12100 a.u."}
{"data": "Study 2", "target": "Prothrombin, mature alpha-thrombin (F2, Homo sapiens, UniProt P00734)", "technique": "aptamer microarray, sandwich", "molecule type": "DNA with 2'F-ANA", "matrix": "in vitro", "tested at": "200 nM", "setting": "whole 15-mer aptamer, many near background", "together with": "Cy3 exosite-II aptamer, 400 nM", "reading": "higher = stronger binding", "sequence": "GGTTGGTGTGGTTGG"}
{"Modification": "2'F-ANA at 1 3 7 9 10 14", "mean fluorescence intensity [a.u.]": 60.4}
{"Modification": "2'F-ANA at 3 4 5 6 11 13 14 15", "mean fluorescence intensity [a.u.]": 48.1}
{"Modification": "2'F-ANA at 2 7 8 9 10 12 14 15", "mean fluorescence intensity [a.u.]": 97.7}
{"Modification": "2'F-ANA at 1 4 5 10 12 14 15", "mean fluorescence intensity [a.u.]": 45.4}
{"Modification": "2'F-ANA at 1 3 5 6 8 11 13 15", "mean fluorescence intensity [a.u.]": 56.9}
{"Modification": "2'F-ANA at 2 3 4 9 12 13 14 15", "mean fluorescence intensity [a.u.]": 479}
{"Modification": "2'F-ANA at 1 2 3 4 6 8 10 12 14 15", "mean fluorescence intensity [a.u.]": 50.2}
{"data": "Study 3", "target": "Sal-like protein 4, full length isoform B (SALL4, Homo sapiens, UniProt Q9UJQ4-2, residues 1-616)", "technique": "universal PBM", "molecule type": "double-stranded DNA, one strand shown", "matrix": "in vitro", "tested at": "not given", "setting": "8-mer, flanks averaged, mean of replicates", "reading": "higher = stronger binding"}
{"Sequence": "CAAGCTTG", "E-score": -0.00072}
{"Sequence": "AGCAAAAC", "E-score": 0.0842}
{"Sequence": "CCCGAATC", "E-score": -0.268}
{"Sequence": "TCCGATAA", "E-score": 0.155}
{"data": "Study 4", "target": "Histone acetyltransferase KAT6A, winged helix 2, GST fusion (KAT6A, Homo sapiens, UniProt Q92794, residues 85-181)", "technique": "protein binding microarray", "molecule type": "double-stranded DNA, one strand shown", "matrix": "in vitro", "tested at": "not given", "setting": "8-mer, flanks averaged, mean of 2 arrays, mostly near background", "relative to": "not given", "reading": "higher = stronger binding", "Target sequence (chain)": "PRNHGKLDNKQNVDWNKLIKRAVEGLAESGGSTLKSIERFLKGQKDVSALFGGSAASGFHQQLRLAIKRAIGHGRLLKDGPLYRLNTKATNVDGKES"}
{"Sequence": "AAGTGCAG", "E-score": -0.0796}
{"Sequence": "AGACCCAA", "E-score": 0.0988}
{"Sequence": "TCGACTAA", "E-score": 0.0843}
{"Sequence": "CACCTACC", "E-score": -0.13}
{"Sequence": "CAACAACA", "E-score": 0.234}
{"Sequence": "AAGACATC", "E-score": -0.16}
{"Sequence": "CTTAAGGA", "E-score": -0.00301}
{"Sequence": "AGGATAGC", "E-score": 0.00364}
{"Sequence": "AGATTTGA", "E-score": -0.0947}
{"Sequence": "CTTGCTGC", "E-score": 0.0897}
{"Sequence": "GTCATCCA", "E-score": -0.0839}
{"Sequence": "AAGAGACG", "E-score": 0.0145}
{"Sequence": "TGGTTTAA", "E-score": 0.0622}
{"Sequence": "CATCACAG", "E-score": -0.161}
{"Sequence": "AATGTCGG", "E-score": -0.0758}
{"Sequence": "AATGGGAT", "E-score": -0.185}
{"Sequence": "CCACCCGG", "E-score": 0.19}
{"Sequence": "CGAAGCTC", "E-score": 0.116}
{"Sequence": "GAGAGCAA", "E-score": 0.232}
{"Sequence": "AGAGTACT", "E-score": 0.0253}
{"data": "Single results of other studies", "FOXP2 N-truncated, polyQ removed": "Forkhead box protein P2, N-truncated, polyQ removed (FOXP2, Homo sapiens, UniProt O15409, residues 214-715)", "sequence of UniProt O15409 (214-715, unmodified, looked up)": "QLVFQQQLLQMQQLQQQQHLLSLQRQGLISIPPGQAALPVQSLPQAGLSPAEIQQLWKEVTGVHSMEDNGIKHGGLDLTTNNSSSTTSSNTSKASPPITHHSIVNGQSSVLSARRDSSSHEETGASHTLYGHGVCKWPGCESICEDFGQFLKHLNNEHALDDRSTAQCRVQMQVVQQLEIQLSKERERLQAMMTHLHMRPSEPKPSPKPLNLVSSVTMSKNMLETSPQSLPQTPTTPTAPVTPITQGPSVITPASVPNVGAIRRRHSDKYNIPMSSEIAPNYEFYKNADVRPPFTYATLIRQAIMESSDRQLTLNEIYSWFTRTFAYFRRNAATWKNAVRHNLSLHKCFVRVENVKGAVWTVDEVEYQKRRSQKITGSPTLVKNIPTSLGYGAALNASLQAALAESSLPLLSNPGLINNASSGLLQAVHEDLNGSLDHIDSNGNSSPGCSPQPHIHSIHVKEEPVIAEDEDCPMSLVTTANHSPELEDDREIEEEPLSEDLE"}
{"Substance": "CGCCTGTTACGGCATCAGGGCTTTGGTTTGGGATGGCTGCTTGTATACCAATTGTTCCGGCGGTATGAC", "target": "FOXP2 N-truncated, polyQ removed", "assay": "MITOMI", "system": "double-stranded DNA, one strand shown, in vitro", "conditions": "not given, 69-bp whole dsDNA, apparent Ka, titration fit", "scale": "relative to: unmutated reference site, higher = stronger binding", "measurement": "relative association constant", "result": "0.053 fold"}
{"Substance": "PhoQ, residues 284 288 289 292 302 303 SNGLAW", "target": "PhoP, residues 12 14 15 18 19 NMSSL (Escherichia coli, UniProt P23836)", "assay": "Sort-seq, measured: YFP reporter", "system": "E. coli", "conditions": "PhoQ-PhoP variant library, together with: 10 µM Mg2+", "scale": "relative to: high Mg2+ state, higher = stronger signaling", "measurement": "fold induction", "result": 7.4}
{"Substance": "CGCCTGTTACGGCATCAGGGCTTTGGTTTGGGATGGCTGCTCGTTTACCAATTGTTCCGGCGGTATGAC", "target": "FOXP2 N-truncated, polyQ removed", "assay": "MITOMI", "system": "double-stranded DNA, one strand shown, in vitro", "conditions": "not given, 69-bp whole dsDNA, apparent Ka, titration fit", "scale": "relative to: unmutated reference site, higher = stronger binding", "measurement": "relative association constant", "result": "0.0128 fold"}
{"note": "For quick reference, copied from above (study 4):"}
{"Sequence": "CACCTACC", "E-score": -0.13}
{"Sequence": "AAGAGACG", "E-score": 0.0145}
{"Sequence": "AAGACATC", "E-score": -0.16}
{"Sequence": "GAGAGCAA", "E-score": 0.232}
{"Sequence": "AAGTGCAG", "E-score": -0.0796}
{"Sequence": "CTTGCTGC", "E-score": 0.0897}
{"Sequence": "AGGATAGC", "E-score": 0.00364}
